Results from different studies.
Compare with care: the assays were run in different laboratories. Numbers after ± are the reported error.
Beta-lactamase CTX-M-14: Beta-lactamase CTX-M-14 (Escherichia coli, UniProt Q9L5C7)
ALB: Albumin (ALB, Bos taurus, UniProt P02769)

CC[C@H](C)[C@H](NC(=O)[C@H](CCSC)NC(=O)[C@H](CCC(N)=O)NC(=O)[C@H](CCC(N)=O)NC(=O)CNC(=O)[C@@H](NC(=O)[C@H](CO)NC(=O)[C@@H]1CCCN1C(=O)[C@@H](N)CCC(N)=O)C(C)C)C(=O)N[C@@H](Cc1ccccc1)C(=O)N[C@@H](CCC(=O)O)C(=O)N[C@@H](CCC(=O)O)C(=O)N[C@@H](Cc1c[nH]cn1)C(=O)NCC(=O)N[C@@H](Cc1ccccc1)C(=O)N[C@@H](CCCNC(=N)N)C(=O)N[C@@H](CCCNC(=N)N)C(=O)N[C@H](C(=O)N[C@H](C(=O)N1CCC[C@H]1C(=O)N1CCC[C@H]1C(=O)N[C@H](C(=O)N[C@H](C(=O)N[C@@H](C)C(=O)N[C@H](C(=O)O)[C@@H](C)O)[C@@H](C)O)[C@@H](C)O)[C@@H](C)O)[C@@H](C)O gave a Kd of 0.056 µM (Platelet-derived growth factor subunit B, homodimer (Homo sapiens, UniProt P01127); binding, radioligand equilibrium binding; 2 h, room temperature).
For [3H]C1CCN(S(=O)(=O)c2cc(Cl)c(OC)cc2Cl)CC1[3H] (stereo not drawn), the Kd was 0.00028 µM (Melanopsin (OPN4, Homo sapiens, UniProt Q9UHM6); binding, saturation binding; membranes of light-exposed CHO-Opn4 cells).
With Nc1ncnc2c1ncn2[C@@H]1O[C@H](COP(=O)(O)OP(=O)(O)OP(=O)(O)O)[C@@H](O)[C@H]1O the Kd was 1380 µM (Beta-nerve growth factor (NGF, Homo sapiens, UniProt P01138); binding).
With CCCCCCCC(=O)N[C@@H](CCN)C(=O)N[C@H](C(=O)N[C@@H](CCN)C(=O)N[C@H]1CCNC(=O)[C@H]([C@@H](C)O)NC(=O)[C@H](CCN)NC(=O)[C@H](CCN)NC(=O)[C@H](CSCc2ccccc2)NC(=O)[C@@H](Cc2ccccc2)NC(=O)[C@H](CCN)NC1=O)[C@@H](C)O the Kd was 5.15 µM (anti-polymyxin B mouse IgM mAb; SPR; 25 °C).
The Kd of NC(=O)CN1C(=O)C(O)(CC(=O)c2cccc(N)c2)c2ccccc21 (stereo not drawn) is reported as 1.05 µM (uncharacterized protein (Leishmania donovani, UniProt A0A3Q8IA09); ITC; 298 K).
The Kd of CC(C)C[C@H](NC(=O)[C@H](CCCCN)NC(=O)[C@H](CCCCN)NC(=O)[C@H](C)NC(=O)[C@H](CCCCN)NC(=O)[C@H](CCCCN)NC(=O)[C@@H]1CCCN1C(=O)[C@@H](NC(=O)[C@H](CCCCN)NC(=O)[C@@H]1CCCN1)[C@@H](C)O)C(=O)O is reported as 12 ± 0.7 µM (Cyclin-dependent kinase 5, with p25 (CDK5, Homo sapiens, UniProt Q00535); substrate; 0.2 mM free Mg2+).
O=C(Nc1cccc(-c2nn[nH]n2)c1)c1cc(-c2cccnc2)cc(C(F)(F)F)c1 gave a Kd of 43.5 ± 0.9 µM (Beta-lactamase CTX-M-14; surface plasmon resonance; 25 °C).
With CC(=O)NCCN(CC(=O)NCCN(CC(=O)NCCN(CC(=O)NCCC(N)=O)C(=O)C[C@@H](N)Cc1ccccc1)C(=O)C[C@@H](N)Cc1ccccc1)C(=O)C[C@@H](N)CCCNC(=N)N the Kd was 0.6 ± 0.1 µM (HIV-1 TAR RNA (18-44); fluorescence; 25 °C, together with: 100-fold excess natural tRNA).
CNc1ccccc1C(=O)O[C@H]1C[C@H](n2cnc3c(N)ncnc32)O[C@@H]1COP(=O)(O)OP(=O)(O)O gave a Kd of 0.98 ± 0.32 µM (Unconventional myosin-Va (Gallus gallus, UniProt Q02440, D297C/G292C/I296C/S293C/V295G); binding, ligand, stopped-flow FRET; 25 °C, together with: 2 mM MgCl2).
With CC(=O)O[C@H]1C=C([C@H](C)[C@H]2CC(C)=C(C)C(=O)O2)[C@@]2(C)CC[C@H]3[C@@H](C[C@H]4O[C@]45[C@@H](O)C=CC(=O)[C@]35C)[C@]12O the Kd was 68.4 µM (Peroxiredoxin-6 (PRDX6, Homo sapiens, UniProt P30041, C47A); binding, BLI).
OC(Cc1cc(-c2ccc(C(O)C(F)(F)F)s2)sc1-c1ccc(-c2sc(-c3ccc(C(O)C(F)(F)F)s3)cc2CC(O)C(F)(F)F)s1)C(F)(F)F (stereo not drawn) gave a Kd of 0.038 µM (Microtubule-associated protein tau, aggregated (MAPT, Homo sapiens, UniProt P10636); small tau aggregate binding; 96 h aggregation).
For CC(=O)NCCN(CCC(=O)NCCN(CCC(=O)NCCN(CCC(=O)NCCC(N)=O)C(=O)[C@@H](N)Cc1ccccc1)C(=O)[C@@H](N)CCCNC(=N)N)C(=O)[C@@H](N)CCCNC(=N)N, the Kd was 0.6 ± 0.1 µM (HIV-1 TAR RNA (18-44); fluorescence; 25 °C, together with: 100-fold excess 15-mer duplex DNA).
The Kd of O=C(CCc1ccc2n1[B-](F)(F)[N+]1=C(c3ccc[nH]3)C=CC1=C2)NCCCn1cc([C@H]2CN(Cc3ccccn3)C(=O)[C@@H]3CCC[C@H]2N3S(=O)(=O)c2cc(Cl)cc(Cl)c2)nn1 is reported as 0.669 µM (Peptidyl-prolyl cis-trans isomerase FKBP4 (FKBP4, Homo sapiens, UniProt Q02790); binding, FP).
CC(C)[C@H](NC(=O)CNC(=O)CNC(=O)[C@@H](NC(=O)[C@H](C)NC(=O)[C@@H]1CCCN1C(=O)[C@H](C)NC(=O)[C@@H](N)CO)[C@@H](C)O)C(=O)N[C@@H](CCCCN(C)C)C(=O)N[C@@H](CCCCN)C(=O)N1CCC[C@H]1C(=O)N[C@@H](Cc1c[nH]cn1)C(=O)N[C@@H](CCCNC(=N)N)C(=O)N[C@@H](Cc1ccc(O)cc1)C(=O)N[C@@H](CCCNC(=N)N)C(=O)N1CCC[C@H]1C(=O)O has a Kd of 19.3 ± 2.5 µM (PHD finger protein 1, Tudor domain (Homo sapiens, UniProt O43189); binding, isothermal titration calorimetry).
The Kd of Cc1ccc2c(c1Br)C(O)(CC(=O)c1ccc3c(c1)OCO3)C(=O)N2 (stereo not drawn) is reported as 9.3 ± 0.09 µM (Uncharacterized protein (Trypanosoma brucei brucei, UniProt Q386Q8); binding, surface plasmon resonance; Trypanosoma brucei; together with: UTP 500 µM).
With O=C(Nc1cccc(-c2nn[nH]n2)c1)c1cc(-n2ccnn2)cc(C(F)(F)F)c1 the Kd was 32.3 ± 0.9 µM (Beta-lactamase CTX-M-14; surface plasmon resonance; 25 °C).
With CCCCCCCC(=O)N[C@@H](CCN)C(=O)N[C@H](C(=O)N1CCC[C@H]1C(=O)N[C@H]1CCNC(=O)[C@H]([C@@H](C)O)NC(=O)[C@H](CCN)NC(=O)[C@H](CCN)NC(=O)[C@H](CC(C)C)NC(=O)[C@@H](Cc2ccccc2)NC(=O)[C@H](CCN)NC1=O)[C@@H](C)O the Kd was 20.3 µM (anti-polymyxin B mouse IgM mAb; SPR; 25 °C).
CO[C@@H]1O[C@H](CO)[C@@H](O[C@H]2O[C@H](CO)[C@@H](OP(=O)(O)O)[C@H](OP(=O)(O)O)[C@H]2O)[C@H]1OP(=O)(O)O has a Kd of 0.0405 µM (Inositol 1,4,5-trisphosphate-gated calcium channel ITPR1, N-terminal region (Itpr1, Rattus norvegicus, UniProt P29994, del318-332/R504Q); [3H]IP3 competition binding; N-terminal fragment R504Q).
N#C[C@@H]1CC(F)(F)CN1C(=O)CNC(=O)c1ccnc2ccc(OCCCN3CCN(C(=O)CN4CCN(CC(=O)O)CCN(CC(=O)O)CC4)CC3)cc12 has a Kd of 1.1e-05 µM (Prolyl endopeptidase FAP (FAP, Homo sapiens, UniProt Q12884); binding, SPR).
For CCCCCCCC(=O)N[C@@H](CCN)C(=O)N[C@H](C(=O)N[C@@H](CCN)C(=O)N[C@H]1CCNC(=O)[C@H]([C@@H](C)O)NC(=O)[C@H](CCN)NC(=O)[C@H](CCN)NC(=O)[C@H](CC(C)C)NC(=O)[C@@H](CCSC)NC(=O)[C@H](CCN)NC1=O)[C@@H](C)O, the Kd was 13.4 µM (anti-polymyxin B mouse IgM mAb; SPR; 25 °C).
With N#Cc1c(-c2ccc(Cl)cc2)cc(-c2cccs2)nc1SCc1ccc(C(=O)O)cc1 the Kd was 11.6 µM (Histone acetyltransferase KAT2A (KAT2A, Homo sapiens, UniProt Q92830); binding, SPR).
CC(=O)NCCN(CCC(=O)NCCN(CCC(=O)NCCN(CCC(=O)NCCC(N)=O)C(=O)[C@@H](N)Cc1ccccc1)C(=O)[C@@H](N)Cc1ccccc1)C(=O)[C@@H](N)CCCNC(=N)N gave a Kd of 0.7 ± 0.05 µM (HIV-1 TAR RNA (18-44); fluorescence; 25 °C, together with: 100-fold excess 15-mer duplex DNA).
O=C(Nc1cccc(-c2nn[nH]n2)c1)c1cc(-c2ccncn2)cc(C(F)(F)F)c1 has a Kd of 8.34 ± 0.08 µM (Beta-lactamase CTX-M-14; surface plasmon resonance; 25 °C).
The Kd of CCCCCCCCCCCCCC(=O)Nc1ccccc1SSc1ccccc1NC(=O)CCCCCCCCCCCCC is reported as 9.35 µM (ALB; binding, fluorescence quenching; pH 7.4, 313 K).
With CC(=O)NCCN(CC(=O)NCCN(CC(=O)NCCN(CC(=O)NCCC(N)=O)C(=O)C[C@@H](N)CCCNC(=N)N)C(=O)C[C@@H](N)Cc1ccccc1)C(=O)C[C@@H](N)Cc1ccccc1 the Kd was 0.39 ± 0.05 µM (HIV-1 TAR RNA (18-44); fluorescence; 25 °C, together with: 100-fold excess 15-mer duplex DNA).
The Kd of CCCCCCCCCCCC(=O)Nc1ccccc1SSc1ccccc1NC(=O)CCCCCCCCCCC is reported as 0.0971 µM (ALB; binding, fluorescence quenching; pH 7.4, 298 K, together with: warfarin (site I marker)).
The Kd of CC(=O)NCCN(CCC(=O)NCCN(CCC(=O)NCCN(CCC(=O)NCCC(N)=O)C(=O)[C@@H](N)CCCNC(=N)N)C(=O)[C@@H](N)CCCCN)C(=O)[C@@H](N)Cc1ccccc1 is reported as 1.52 ± 0.54 µM (HIV-1 TAR RNA (18-44); fluorescence; 25 °C, together with: 100-fold excess natural tRNA).
CC1(C)CC(=O)C2=C(C1)Oc1ncnc(Nc3ccc(Cl)cc3)c1C2c1ccccc1F (stereo not drawn) gave a Kd of 12.9 µM (ALB; absorption titration; pH 7.2, 25 °C).
O=C(Nc1cccc(-c2nn[nH]n2)c1)c1cc(-c2ccco2)cc(C(F)(F)F)c1 has a Kd of 15.7 ± 0.3 µM (Beta-lactamase CTX-M-14; surface plasmon resonance; 25 °C).
With CC(C)C[C@H](NC(=O)[C@@H]1CCCN1C(=O)[C@H](CCCCN)NC(=O)[C@H](CCCCN(CCc1ccccc1)C(C)C)NC(=O)[C@@H](NC(=O)CNC(=O)CN)C(C)C)C(=O)N[C@@H](CCCNC(=N)N)C(N)=O the Kd was over 100 µM (PHD finger protein 1, Tudor domain Y47A (Homo sapiens, UniProt O43189, Y47A); binding, isothermal titration calorimetry; Tudor domain; greater than value, fit not possible).
Cc1ccc(NC(=O)c2c(C)oc3ccc(O)c(CN4CCCCCC4)c23)cc1 has a Kd of 14 µM (Bcl2 G-quadruplex DNA; surface plasmon resonance).
With CCCCCCCC(=O)N[C@@H](CCN)C(=O)N[C@H](C(=O)N[C@@H](CCN)C(=O)N[C@H]1CCNC(=O)[C@H]([C@@H](C)O)NC(=O)[C@H](CCN)NC(=O)[C@H](CCN)NC(=O)[C@H](CCSC)NC(=O)[C@@H](Cc2ccccc2)NC(=O)[C@H](CCN)NC1=O)[C@@H](C)O the Kd was 8.8 µM (anti-polymyxin B mouse IgM mAb; SPR; 25 °C).
CCCCCCCCCCCCCCCC(=O)Nc1ccccc1SSc1ccccc1NC(=O)CCCCCCCCCCCCCCC has a Kd of 3410 µM (ALB; binding, fluorescence quenching; pH 7.4, 313 K).

Repeated from above:
For [3H]C1CCN(S(=O)(=O)c2cc(Cl)c(OC)cc2Cl)CC1[3H] (stereo not drawn), the Kd was 0.00028 µM (Melanopsin (OPN4, Homo sapiens, UniProt Q9UHM6); binding, saturation binding; membranes of light-exposed CHO-Opn4 cells).
With Nc1ncnc2c1ncn2[C@@H]1O[C@H](COP(=O)(O)OP(=O)(O)OP(=O)(O)O)[C@@H](O)[C@H]1O the Kd was 1380 µM (Beta-nerve growth factor (NGF, Homo sapiens, UniProt P01138); binding).
With CCCCCCCC(=O)N[C@@H](CCN)C(=O)N[C@H](C(=O)N[C@@H](CCN)C(=O)N[C@H]1CCNC(=O)[C@H]([C@@H](C)O)NC(=O)[C@H](CCN)NC(=O)[C@H](CCN)NC(=O)[C@H](CSCc2ccccc2)NC(=O)[C@@H](Cc2ccccc2)NC(=O)[C@H](CCN)NC1=O)[C@@H](C)O the Kd was 5.15 µM (anti-polymyxin B mouse IgM mAb; SPR; 25 °C).
The Kd of NC(=O)CN1C(=O)C(O)(CC(=O)c2cccc(N)c2)c2ccccc21 (stereo not drawn) is reported as 1.05 µM (uncharacterized protein (Leishmania donovani, UniProt A0A3Q8IA09); ITC; 298 K).
